Assay results of several laboratories.
A part holds a random share of what one study measured.

Study 1 — technique: RNA Bind-n-Seq; molecule type: RNA; matrix: in vitro; concentration: 200 nM; notes: whole 134-nt RNA, ends assumed; with: 150 mM LiCl; relative to: input library; reading: higher = stronger binding; library: 7-deaza-guanosine replaces G
Target: Ras GTPase-activating protein-binding protein 1, full length (G3BP1, Homo sapiens, UniProt Q13283)
UniProt Q13283, sequence (whole entry, looked up): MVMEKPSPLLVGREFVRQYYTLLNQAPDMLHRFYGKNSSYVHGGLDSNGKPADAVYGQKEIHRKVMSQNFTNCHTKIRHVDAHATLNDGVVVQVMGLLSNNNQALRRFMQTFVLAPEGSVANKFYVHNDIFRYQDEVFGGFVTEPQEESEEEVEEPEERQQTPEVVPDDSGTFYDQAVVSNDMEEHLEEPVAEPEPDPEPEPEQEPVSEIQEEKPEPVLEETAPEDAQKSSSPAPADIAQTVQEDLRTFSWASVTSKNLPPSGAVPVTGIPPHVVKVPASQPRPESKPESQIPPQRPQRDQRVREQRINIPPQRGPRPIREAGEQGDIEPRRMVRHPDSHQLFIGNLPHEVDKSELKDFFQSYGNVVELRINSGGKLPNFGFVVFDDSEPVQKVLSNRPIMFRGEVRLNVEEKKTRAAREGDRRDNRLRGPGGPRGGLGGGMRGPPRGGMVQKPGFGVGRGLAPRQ
For `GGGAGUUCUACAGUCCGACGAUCGUCCUGUGCUACACAUCGUAUGUACCGAAUCGGGGAAAAGGGGAAAAGGGGAAAAGGGAAAGUAUUAUGUUACGCCGUUCGGAUCUGCACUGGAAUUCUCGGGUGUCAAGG`, the log2 enrichment was 0.125.
For `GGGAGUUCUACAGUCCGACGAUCCUCAAGUCCUGUGCUACACAUCGUAUGUACCGAAUCGGUUGGGGUUGGGUUGGGAAAGUAUUAUGUUACGCCGUUCGGAUCUGCACUUCCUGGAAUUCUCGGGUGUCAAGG`, the log2 enrichment was 0.416.
For `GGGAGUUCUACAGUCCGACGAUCACCAUGCAGUUGGGCAUCUUUGGGAAGUGGGGCAAGGGGGGGAUAGGGAGGGGGGUAACACUUUGGGAACAGGUGGUCCCAGGUCGUUUCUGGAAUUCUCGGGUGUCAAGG`, the log2 enrichment was 0.285.
The log2 enrichment of `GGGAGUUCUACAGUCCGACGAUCUGGGAGGUGGAUUUUGUUUAUUUUUUUAGCUCAUUUCCAGGGGUGGGAAUUUUUUUUUAGUAUGUGUCAUGAAUAAAGUUGUUUUUGAAAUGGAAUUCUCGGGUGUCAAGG` is reported as 0.447.
For `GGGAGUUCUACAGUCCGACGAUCCAAGUCCUGUGCUACACAUCGUAUGUACCGAAUCGGGGCCCCGGCCCCGGCCCCGGAAAGUAUUAUGUUACGCCGUUCGGAUCUGCACUUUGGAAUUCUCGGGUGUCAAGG`, the log2 enrichment was -1.81.
`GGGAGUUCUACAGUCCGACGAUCCCUGUGCUACACAUCGUAUGUACCGAAUCAAACCCCCCCAAAUUUUUUUAAACCCCCAAAAAAGUAUUAUGUUACGCCGUUCGGAUCUGCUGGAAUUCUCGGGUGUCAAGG` has a log2 enrichment of 1.33.
`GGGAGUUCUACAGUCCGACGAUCGUCCUGUGCUACACAUCGUAUGUACCGAAUCAAACCCAAAUUUUUAAAUUUUUUUAAAAAAGUAUUAUGUUACGCCGUUCGGAUCUGCACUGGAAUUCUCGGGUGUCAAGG` gave a log2 enrichment of -1.1.
`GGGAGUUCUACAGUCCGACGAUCUGGUAUUCAUGGGUAGUUUGAAAUAUCCAGAUGAGAAUGGAUUUGAUGCCUUCCUGAAGAAGCAUGGGGGUAGUGAUAAUGCCUCAACUGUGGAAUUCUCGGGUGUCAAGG` gave a log2 enrichment of -1.29.

Study 2 — technique: RNA Bind-n-Seq; molecule type: RNA; matrix: in vitro; concentration: 365 nM; relative to: no-protein control; reading: higher = stronger binding
Target: RNA binding protein fox-1 homolog 2, RRM domain, GST-SBP tag (RBFOX2, Homo sapiens, UniProt O43251-10, residues 100-194)
Notes: natural RNA segment, single round, ends assumed
Residues (chain): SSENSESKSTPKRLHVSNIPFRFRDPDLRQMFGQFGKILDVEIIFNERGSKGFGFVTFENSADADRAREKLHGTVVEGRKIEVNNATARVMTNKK
`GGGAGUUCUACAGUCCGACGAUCUUUAGAUAGUAUGCUCUUGAUUGGAACAAAUUUUCAUUUUUUUAAAAAUCUGCUAAACAUUUGCAAUCUUACAUUUGUAUUUUAAUACCAGAGUGAGGUUUAGCUUUGUCUGGAAUUCUCGGGUGCCAA`: “RBNS enrichment (R)” 1.2.
`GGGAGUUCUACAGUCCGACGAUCAGUUAACCUUCUCACCGAAACCUUAGUUCAGGAUGGAUCAAGUGCUGUGACAGUGACAGCUCAUUUCUCAGGCCUGGUUUGCUUUGAUGUAUUACUCUUCUUCUUUUAAUUGGAAUUCUCGGGUGCCAA` — result for “RBNS enrichment (R)”: 0.424.
`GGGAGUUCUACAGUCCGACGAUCUGUAACUCAGUGUGAAGCAAGUGUUUGUCCCUGCCCGCUAUCAGCCUACAGAGCAACAUUGUCAUUGGCCAAGGUCAGUCCUGAGGGAUGAUGAUUUCAAUGUCAGAAAAUGGAAUUCUCGGGUGCCAA`: “RBNS enrichment (R)” 0.26.
`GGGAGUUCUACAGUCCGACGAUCGGCAGUAUUGCUCCUACCACUGCUGCUGCUGCAAUCUCAGUGAGGGUGUACGCUUGCCCUGGCUUAUGGAUUGGAAUGGGACUAAGGGGCAGCCCCAGCCCUGGGAACCUUGGAAUUCUCGGGUGCCAA` — result for “RBNS enrichment (R)”: 0.649.
`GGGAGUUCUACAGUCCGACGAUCCUGGGCCCACUGGAUCCUCGACAGGAAGCCACCCUGCGUGGGGACUGCAGGCACACAAAAUAAAAUAACUCGUGCUCAUUUGGAAUGUAACUCCUGGCACAGUGUUCCUAUGGAAUUCUCGGGUGCCAA` — result for “RBNS enrichment (R)”: 0.274.
For `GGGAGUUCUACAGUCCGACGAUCUGGCACUCCUCUUCUGAGGGGUUGCCCCUGUCCCUAUCUUAGGGGAGCUUGUCUCUUCCAUAGACCUCCAAAGCUUCAGGGAAGGGAAAACCCAGGGUAUCUUCCCUCAGUGGAAUUCUCGGGUGCCAA`, “RBNS enrichment (R)” read 0.279.
`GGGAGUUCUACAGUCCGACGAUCAGCUUCCAGAAGCACGCUGUGUUCUUUUUGCCAAAUAUGUUCAGUUAUAGUCAGCUGAUAGAUUGAUGUGGCUGAAAACAGGACCGAGUGAACUGAUGCUCCCACCUGGGUGGAAUUCUCGGGUGCCAA`: “RBNS enrichment (R)” 0.932.
For `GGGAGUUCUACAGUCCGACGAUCUGGAAACGGAUAACAAAGGGCAGCCUUCCACUUCUGGUAUAAUGGGGGAGCCUCUUUUCUCAGGCUUGACACCUGUCUGAAUAAGAGUGAUUAGAGCCGCAUAAUAUCCCUGGAAUUCUCGGGUGCCAA`, “RBNS enrichment (R)” read 0.426.

Study 3 — technique: universal PBM; molecule type: double-stranded DNA, one strand shown; matrix: in vitro; concentration: not given; reading: higher = stronger binding
Target: Sal-like protein 4, full length isoform B (SALL4, Homo sapiens, UniProt Q9UJQ4-2, residues 1-616)
Notes: 8-mer, flanks averaged, mean of replicates
For `AGCACCTC`, the E-score was -0.225.
`CATTGCGC` has an E-score of -0.0848.
With `ATCGGGGA` the E-score was 0.00833.
`GCGGTACA` has an E-score of -0.137.
For `ACTACCGG`, the E-score was -0.29.
With `CGCTTGTA` the E-score was -0.0436.
The E-score of `CCGGCGGC` is reported as -0.354.
With `AGTTTAGG` the E-score was -0.00421.
`AATGATCG` has an E-score of -0.0503.
The E-score of `TGCGTCAA` is reported as 0.00994.
With `CTGCAACC` the E-score was -0.197.
`AGATACAC` gave an E-score of 0.0666.
`ACTGAATG` gave an E-score of 0.101.
For `ACCAGGTC`, the E-score was -0.221.
With `GTTACAGA` the E-score was 0.0328.
`CATAACCC` gave an E-score of 0.185.
The E-score of `AACAAGAC` is reported as 0.137.

Study 4 — technique: protein binding microarray; molecule type: double-stranded DNA, one strand shown; matrix: in vitro; concentration: not given; relative to: not given; reading: higher = stronger binding
Target: Histone acetyltransferase KAT6A, both winged helices, GST fusion (KAT6A, Homo sapiens, UniProt Q92794, residues 1-181)
Notes: 8-mer, flanks averaged, mean of 2 arrays, mostly near background
Target sequence (chain): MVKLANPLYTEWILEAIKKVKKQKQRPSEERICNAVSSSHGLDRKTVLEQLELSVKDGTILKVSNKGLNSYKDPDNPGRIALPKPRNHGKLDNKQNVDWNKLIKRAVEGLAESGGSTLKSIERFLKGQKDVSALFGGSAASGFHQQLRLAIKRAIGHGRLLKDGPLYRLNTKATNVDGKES
With `GTCTCCCA` the E-score was -0.138.
`GGATCCCA` gave an E-score of -0.099.
`AGACAGAC` gave an E-score of 0.0202.
`AAGCTAAT` has an E-score of -0.0755.
`GGAGACCC` has an E-score of -0.082.
`ATTAGTAG` gave an E-score of -0.0819.
`GATTCCAA` gave an E-score of -0.148.
`AAGCGGAA` has an E-score of 0.205.
The E-score of `CTATAAAA` is reported as -0.0879.
With `GTCGACAA` the E-score was -0.0688.
`GTGTAGTA` gave an E-score of -0.125.
For `ATTGAAGA`, the E-score was -0.178.
With `ACTAGTAT` the E-score was -0.155.
The E-score of `CCCGATGA` is reported as 0.117.
With `AACTAAAG` the E-score was -0.167.
With `CCGACCTA` the E-score was 0.0347.
`CATCAAAG` gave an E-score of -0.124.

A few entries again (study 3):
The E-score of `CCGGCGGC` is reported as -0.354.
For `ACTACCGG`, the E-score was -0.29.
`GCGGTACA` has an E-score of -0.137.
`ACTGAATG` gave an E-score of 0.101.
With `CTGCAACC` the E-score was -0.197.
For `AGCACCTC`, the E-score was -0.225.
